Experimental data collected from several papers.
A part holds a random share of what one study measured. Positions count from the first letter of the parent shown.

Set 1 — method: RNA Bind-n-Seq; form: RNA; matrix: in vitro; tested at: 365 nM; baseline: no-protein control; reading: higher = stronger binding
Target: RNA binding protein fox-1 homolog 2, RRM domain, GST-SBP tag (RBFOX2, Homo sapiens, UniProt O43251-10, residues 100-194)
Notes: natural RNA segment, single round, ends assumed
Residues (chain): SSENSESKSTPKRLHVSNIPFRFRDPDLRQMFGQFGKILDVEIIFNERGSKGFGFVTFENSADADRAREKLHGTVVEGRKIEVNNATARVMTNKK
For `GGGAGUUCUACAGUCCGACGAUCUGUCACACAAGCAUCUCAAAGUCAAAAGCCAUCUGGGGCUGCUGCUUCUGUUUCUCAGGCUCUGGGGAAAGGAAUCUCCCUCUCCUCUCACUUGAUUCCAAGUGUGGUUGUGGAAUUCUCGGGUGCCAA`, “RBNS enrichment (R)” read 0.378.
Under “RBNS enrichment (R)”, `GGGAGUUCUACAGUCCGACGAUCAUUUUGACAAAUUUAGUGUCUUGUGACCAUCACCAAGAUCAACCUGUUUUUAACCCUCCAAAAAAUUCCCUUCUCCUGCCCUCUUUCCCUGGCAACCCUGAUUGAUUAUCUGGAAUUCUCGGGUGCCAA` is recorded as 1.55.
`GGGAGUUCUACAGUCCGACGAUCAGACAUGGGGCAUGUGUCUGCCAAUAGCCAGUUGUUCUCAGUGUGCACUAUGUAGGUCCCCAUCCACUACUUGACCACCUUUAUCAUUUACGGGGAUUUACAUAGAUUACUGGAAUUCUCGGGUGCCAA`: “RBNS enrichment (R)” 2.25.
For `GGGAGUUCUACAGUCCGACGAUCACGAUGGAUCCGUGACAGCACUUUCCUGUUGCACUGAAACUCUUGGCCAUGUAGAGGAAAAGAUAUGGAGUUAUGUGGAUUUCAUCACUAGUAUGUGUGCGUGAGCUGGUUGGAAUUCUCGGGUGCCAA`, “RBNS enrichment (R)” read 13.8.
Under “RBNS enrichment (R)”, `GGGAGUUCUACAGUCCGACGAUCUUUUGACCUUUUCAAAUAAAUAUGGAUGGCGAGCUCCUAGGCCUCUGGCUUCCUGGUAGAGGGCGGCAUGCCGAAGGGUCUGCUGGGUGUGGAUUGGAUGCUGGGGUGUGUGGAAUUCUCGGGUGCCAA` is recorded as 1.17.
`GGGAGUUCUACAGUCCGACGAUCUCCCUAGAAAGCCAUAUUCCAGCAAUGAACCUUGUGCUAUAGUGACUCCCACCUGUACAUACAUUGUAUAGGCCACCUGUACAUAUCCCAGAGAACAAUCACUAUUCUUAUGGAAUUCUCGGGUGCCAA`: “RBNS enrichment (R)” 0.419.
`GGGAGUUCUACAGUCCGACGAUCCUUUCUAAAAACCAUUUAAAGCUAACUGGGUCUUAGCAUCCUCCUGUGUAUGGAAGAGACAGGUGACCGCUCCAGGUUGGGUGCUCACAGAACCCUUUUCCUGACUCUCAUGGAAUUCUCGGGUGCCAA` — result for “RBNS enrichment (R)”: 0.569.
Under “RBNS enrichment (R)”, `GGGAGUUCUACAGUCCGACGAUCUUGUUGCUGUGCCAACAUCCUAGAUUGUACUUACACAACCUACAUGGUAUAGCCUACUACACACCUGGGCUGUGUGGCAUGGCCUAUUCCUCUUAGGCUACAAACCUGUAUGGAAUUCUCGGGUGCCAA` is recorded as 0.273.
`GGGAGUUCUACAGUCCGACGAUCUGAUCUGUGAUUGCGGAUUUUCGGAGGACACACACGUUGGCACUUCUUGGUAGCCCUGGUUUGCAUUGCUUUGUGUUUCCACACCCGAGGCUGUGUGGGCGGGUGCAUGUUGGAAUUCUCGGGUGCCAA`: “RBNS enrichment (R)” 4.11.
`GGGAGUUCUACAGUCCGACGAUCAUCCUCCUGCCUCUGUCUCCUGAAUGUUGGGACAAAAGUAUGUGCCACCCCUACCCAGCGAGAACAGUUUUUAAUGAAAACUGAGCUAGAUUGUCCAGUUCUGGUAAACAUGGAAUUCUCGGGUGCCAA`: “RBNS enrichment (R)” 1.66.
`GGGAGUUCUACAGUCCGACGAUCAGCCAGAAGCCCAGGACCUCCUUUUUGCACCAGCCUAUUUGAUAGUCCUAUAUUUUUAAAGCACACGGAAGGAGCACCAGCAGCUCUGAUAGUAUUGUGAAAGUUCUGAGUGGAAUUCUCGGGUGCCAA`: “RBNS enrichment (R)” 1.05.
For `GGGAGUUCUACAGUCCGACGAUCGUGCGACUCUGUGGUCCUGAGUGCCAGAAGCUGUCUCCAUGGGUUGGUCACAGUGUGCAUCGCACCGUGCUGUACAUGUGCAGACGCAGCCUGCAGCCAGGUUUUUAUUUUGGAAUUCUCGGGUGCCAA`, “RBNS enrichment (R)” read 0.274.

Set 2 — target: CCNE1, cyclin fold, Cln2 fusion (human); method: yeast growth competition, sequencing; matrix: yeast; notes: strong parent motif; baseline: not given; reading: higher = stronger binding
Starting sequence: E2F1 docking peptide (human); PPVKRRLDFETDH
For `E10L`, “normalised enrichment score” read 6.03.
Under “normalised enrichment score”, `K4S` is recorded as 5.07.
Under “normalised enrichment score”, `K4G` is recorded as 2.05.
`T11F`: “normalised enrichment score” 6.6.
Under “normalised enrichment score”, `L7K` is recorded as 0.143.
`D8W`: “normalised enrichment score” 6.82.
`P2I`: “normalised enrichment score” 5.57.
Under “normalised enrichment score”, `D8A` is recorded as 6.21.
`L7Q` — result for “normalised enrichment score”: 0.357.
`R5K`: “normalised enrichment score” 3.25.
`F9A`: “normalised enrichment score” 0.189.
`T11C`: “normalised enrichment score” 5.99.
`R6N`: “normalised enrichment score” 2.03.
For `L7Y`, “normalised enrichment score” read 0.0505.
Under “normalised enrichment score”, `D12H` is recorded as 6.61.
For `K4V`, “normalised enrichment score” read 6.09.
Under “normalised enrichment score”, `D12K` is recorded as 6.01.

Set 3 — method: DHFR PCA, deep sequencing; matrix: yeast; added: (+)-ABA 0.032 µM; baseline: wild-type fitted maximum; reading: higher = stronger binding
Target: ABI1, truncated, D143A, DHFR fusion (Arabidopsis thaliana)
Notes: methotrexate growth selection, single substitutions
Starting sequence: PYL1, truncated, DHFR fusion (Arabidopsis thaliana); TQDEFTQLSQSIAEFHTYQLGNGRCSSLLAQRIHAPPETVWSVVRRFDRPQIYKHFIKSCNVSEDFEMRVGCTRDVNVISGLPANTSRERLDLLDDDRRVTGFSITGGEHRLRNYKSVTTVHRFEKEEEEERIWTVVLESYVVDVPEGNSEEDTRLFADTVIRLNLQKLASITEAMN; partner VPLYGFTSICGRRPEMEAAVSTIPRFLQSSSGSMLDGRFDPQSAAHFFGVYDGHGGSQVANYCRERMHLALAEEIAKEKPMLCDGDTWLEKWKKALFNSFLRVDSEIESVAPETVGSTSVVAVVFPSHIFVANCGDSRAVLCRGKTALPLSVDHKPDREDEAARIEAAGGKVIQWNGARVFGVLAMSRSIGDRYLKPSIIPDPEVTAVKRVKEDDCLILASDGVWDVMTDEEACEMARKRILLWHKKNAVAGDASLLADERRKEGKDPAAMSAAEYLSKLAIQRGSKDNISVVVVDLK
Under “relative binding score”, `H110W` is recorded as 90.2%.
`P50N` — result for “relative binding score”: -13.1%.
`E152C`: “relative binding score” 1.92%.
Under “relative binding score”, `C72T` is recorded as 5.27%.
For `I52N`, “relative binding score” read 5.21%.
Under “relative binding score”, `R46S` is recorded as -1.92%.
Under “relative binding score”, `V43H` is recorded as -12.4%.
Under “relative binding score”, `G102K` is recorded as 2.09%.
`E4T`: “relative binding score” 8.49%.
For `Q31F`, “relative binding score” read -1.48%.
`E14Y`: “relative binding score” 0.72%.
`E67D`: “relative binding score” 24.8%.
`D95Y` — result for “relative binding score”: -1.23%.
Under “relative binding score”, `V137M` is recorded as 1.71%.
For `R49M`, “relative binding score” read 17.4%.
Under “relative binding score”, `F15L` is recorded as 2.12%.
Under “relative binding score”, `F124W` is recorded as 26.2%.
Under “relative binding score”, `V137L` is recorded as 1.1%.
For `V142P`, “relative binding score” read -1.7%.
`A158M` — result for “relative binding score”: 13.9%.
`D95W` — result for “relative binding score”: -8.34%.

Set 4 — method: universal PBM; form: double-stranded DNA, one strand shown; matrix: in vitro; tested at: 600 nM; reading: higher = stronger binding
Target: Sal-like protein 4, full length isoform A (SALL4, Homo sapiens, UniProt Q9UJQ4, residues 1-1053)
UniProt Q9UJQ4, sequence (whole entry, looked up): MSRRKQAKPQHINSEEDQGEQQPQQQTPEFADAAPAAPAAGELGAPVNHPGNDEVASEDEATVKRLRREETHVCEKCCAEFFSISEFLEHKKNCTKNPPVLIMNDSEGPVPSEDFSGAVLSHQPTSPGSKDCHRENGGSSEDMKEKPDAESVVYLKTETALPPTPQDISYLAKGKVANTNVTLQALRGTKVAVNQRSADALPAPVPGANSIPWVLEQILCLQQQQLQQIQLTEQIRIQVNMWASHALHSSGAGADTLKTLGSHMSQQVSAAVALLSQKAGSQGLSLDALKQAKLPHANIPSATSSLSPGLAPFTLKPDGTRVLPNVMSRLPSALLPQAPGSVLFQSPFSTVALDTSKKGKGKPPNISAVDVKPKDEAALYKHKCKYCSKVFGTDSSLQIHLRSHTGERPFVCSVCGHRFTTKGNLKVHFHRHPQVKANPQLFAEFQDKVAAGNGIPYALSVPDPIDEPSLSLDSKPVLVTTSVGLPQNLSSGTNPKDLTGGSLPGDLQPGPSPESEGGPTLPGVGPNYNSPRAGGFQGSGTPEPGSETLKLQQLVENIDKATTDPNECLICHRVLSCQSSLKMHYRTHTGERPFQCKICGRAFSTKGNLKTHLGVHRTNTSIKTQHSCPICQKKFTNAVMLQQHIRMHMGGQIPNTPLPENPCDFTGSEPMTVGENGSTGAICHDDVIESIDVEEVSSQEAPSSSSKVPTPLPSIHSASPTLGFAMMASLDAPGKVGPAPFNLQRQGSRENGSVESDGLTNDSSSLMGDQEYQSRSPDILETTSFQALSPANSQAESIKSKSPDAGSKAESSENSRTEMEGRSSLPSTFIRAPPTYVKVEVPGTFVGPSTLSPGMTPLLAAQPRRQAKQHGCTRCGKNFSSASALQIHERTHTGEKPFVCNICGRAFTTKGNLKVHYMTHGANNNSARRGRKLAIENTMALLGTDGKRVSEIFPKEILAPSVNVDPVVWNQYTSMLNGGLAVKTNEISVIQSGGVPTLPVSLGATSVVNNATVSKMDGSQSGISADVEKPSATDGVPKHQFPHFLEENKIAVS
Notes: 8-mer, flanks averaged, mean of replicates
`TCGAGCCA` gave an E-score of -0.179.
`CGATGTAG` gave an E-score of -0.0128.
The E-score of `AGTGGCAT` is reported as -0.07.
With `GGGAGAGA` the E-score was -0.153.
With `AAACCACC` the E-score was -0.0324.
`GAGTGGCA` gave an E-score of -0.166.
`TCTGGACA` gave an E-score of -0.0676.
The E-score of `AATGCGTG` is reported as 0.0894.
The E-score of `GTTTGATA` is reported as 0.203.
With `ATGGATCA` the E-score was 0.0715.
The E-score of `AATTATAC` is reported as 0.32.
`ACTCTTAG` gave an E-score of -0.00094.
The E-score of `AGCAAAAC` is reported as 0.031.
For `ATCACCCA`, the E-score was -0.0797.
`CGGCTCTC` gave an E-score of -0.242.
The E-score of `AAAGTCAT` is reported as 0.17.
The E-score of `CACGTTGA` is reported as -0.0937.
`AAACTTCC` gave an E-score of -0.093.
`AGCCCCGC` has an E-score of -0.279.
With `CTGCCGTA` the E-score was -0.066.
With `ACTAGGGA` the E-score was -0.0405.
The E-score of `AGTGACTA` is reported as 0.0541.
For `ATCTCCTA`, the E-score was 0.01.

Set 5 — method: aptamer microarray, sandwich; form: DNA with 2'F-ANA; matrix: in vitro; tested at: 200 nM; added: Cy3 exosite-II aptamer, 400 nM; reading: higher = stronger binding; strand: GGTTGGTGTGGTTGG
Target: Prothrombin, mature alpha-thrombin (F2, Homo sapiens, UniProt P00734)
Notes: whole 15-mer aptamer, many near background
Under “mean fluorescence intensity”, `2'F-ANA at 1 3 6 7` is recorded as 290 a.u.
`2'F-ANA at 2 3 4 5 6 7 9 10 15`: “mean fluorescence intensity” 48.3 a.u.
`2'F-ANA at 2 6 8 10 13 15` — result for “mean fluorescence intensity”: 97.4 a.u.
`2'F-ANA at 1 5 7 8 10 11 13 14` — result for “mean fluorescence intensity”: 46.4 a.u.
`2'F-ANA at 2 4 9 10 11 12 14`: “mean fluorescence intensity” 82.6 a.u.
`2'F-ANA at 2 6 11 13 14`: “mean fluorescence intensity” 102 a.u.
`2'F-ANA at 1 3 5 7 8 10 11 13 14` — result for “mean fluorescence intensity”: 78.4 a.u.
`2'F-ANA at 2 4 5 6 8 9 10 12 14 15` — result for “mean fluorescence intensity”: 47.6 a.u.
`2'F-ANA at 4 5 6 7 13 14` — result for “mean fluorescence intensity”: 45.8 a.u.
`2'F-ANA at 1 2 4 5 7 8 9 11 12 13 14 15` — result for “mean fluorescence intensity”: 48.4 a.u.
For `2'F-ANA at 1 5 7 8 9 10 11 12 13 14 15`, “mean fluorescence intensity” read 45.8 a.u.
Under “mean fluorescence intensity”, `2'F-ANA at 3 6 7 8 12 15` is recorded as 1330 a.u.
For `2'F-ANA at 4 5 10 12 14`, “mean fluorescence intensity” read 46.8 a.u.
For `2'F-ANA at 5 9 10 12 13`, “mean fluorescence intensity” read 47.3 a.u.
For `2'F-ANA at 3 4 6 10 12 14 15`, “mean fluorescence intensity” read 192 a.u.
`2'F-ANA at 1 3 4 8 9 10 11 13 15`: “mean fluorescence intensity” 56.3 a.u.
`2'F-ANA at 1 2 3 4 5 6 8 9 11` — result for “mean fluorescence intensity”: 86.4 a.u.
`2'F-ANA at 1 4 5 6 7 8 9 12 13 14 15`: “mean fluorescence intensity” 51 a.u.

Set 6 — method: protein binding microarray; form: double-stranded DNA, one strand shown; matrix: in vitro; tested at: not given; baseline: not given; reading: higher = stronger binding
Target: Histone acetyltransferase KAT6A, winged helix 2, GST fusion (KAT6A, Homo sapiens, UniProt Q92794, residues 85-181)
Notes: 8-mer, flanks averaged, mean of 2 arrays, mostly near background
Target sequence (chain): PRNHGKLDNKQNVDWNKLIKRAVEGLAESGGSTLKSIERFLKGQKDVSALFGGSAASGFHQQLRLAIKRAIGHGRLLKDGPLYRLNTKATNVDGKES
`ACAGTTCG` gave an E-score of -0.0983.
The E-score of `GGTTAAAA` is reported as -0.051.
`AAGATAGG` has an E-score of -0.173.
With `GTGCTCTA` the E-score was 0.121.
For `ATGCCGCC`, the E-score was 0.126.
`GTTCCCCA` gave an E-score of 0.0172.
`ATTCCAGG` has an E-score of -0.0448.
`AAACGCCA` has an E-score of 0.0258.
For `TCGCACGA`, the E-score was 0.0433.
`GTGTTCCA` gave an E-score of -0.0814.
With `GCGGGAAA` the E-score was 0.25.
The E-score of `ATTGCACC` is reported as -0.00334.
`GACCCAAC` gave an E-score of 0.00193.
With `AGCGTCTA` the E-score was -0.117.
With `AATGTGTA` the E-score was -0.0815.
With `GCGTCGAA` the E-score was 0.119.
`GACACATA` has an E-score of -0.0914.
For `CAGGGGGA`, the E-score was -0.0307.
`AGGGGGCG` gave an E-score of 0.16.
